Assay results collected from several papers.
Lines come from different studies, so protocols differ. ± gives the spread as reported.

Structure (SMILES)	tested on	test	system	conditions	measurement	result
O=C1NC2(CC2)COc2ncc(F)cc2[C@H]2COCCN2c2ccn3ncc1c3n2	–	–	Sprague-Dawley rat, female, serum	oral, 5 mg/kg/day, end of treatment, 4-week subacute toxicity	serum total protein	60.4 ± 2.1 g/L
CC(=O)N[C@@H](CC(C)C)C(=O)N[C@H](C(=O)N[C@@H](Cc1ccccc1)C(=O)N[C@]1(C)CCCCCC/C=C/CCC[C@@](C)(C(=O)N[C@@H](C)C(=O)N[C@@H](C)C(=O)N[C@@H](C)C(=O)N[C@@H](C)C(=O)N[C@@H](C)C(=O)N[C@H](C)C(N)=O)NC(=O)[C@H](CC(C)C)NC(=O)[C@H](CCCCNC(=O)CCNC(=O)C[C@@H]2N=C(c3ccc(Cl)cc3)c3c(sc(C)c3C)-n3c(C)nnc32)NC(=O)[C@H](C)NC(=O)[C@H](Cc2c[nH]c3ccccc23)NC(=O)[C@H](Cc2ccc(O)cc2)NC(=O)[C@H](C)NC1=O)[C@@H](C)O	–	–	C57BL/6J mice, male, plasma	intravenous, 10 mg/kg, 5% DMSO, PEG400, Tween-80, methylcellulose	Cmax	31.2 µM
CCCCCCCCCCCCCCC(=O)N[C@@H](CCCCNC(=O)CN1CCN(CC(=O)O)CCN(CC(=O)O)CCN(CC(=O)O)CC1)C(=O)N[C@@H](CCC(=O)NCCCC[C@@H]1NC(=O)[C@@H](Cc2ccccc2)NC(=O)[C@H](CC(=O)O)NC(=O)CNC(=O)[C@H](CCCNC(=N)N)NC1=O)C(=O)NCCCC[C@@H]1NC(=O)[C@@H](Cc2ccccc2)NC(=O)[C@H](CC(=O)O)NC(=O)CNC(=O)[C@H](CCCNC(=N)N)NC1=O [indium-111 labelled]	–	–	female BALB/c nude mice, U-87 MG xenograft, blood	intravenous, dose not given, 4 h	blood radioactivity	1.29 ± 0.12 %ID/g
N=C(N)NCCC[C@@H]1NC(=O)[C@H](CCCCNC(=O)CCC(NC(=S)Nc2ccc(CC3CN(CC(=O)O)CCN(CC(=O)O)CCN(CC(=O)O)CCN3CC(=O)O)cc2)C(=O)NCCCC[C@@H]2NC(=O)[C@@H](Cc3ccc(O)cc3)NC(=O)[C@H](CC(=O)O)NC(=O)CNC(=O)[C@H](CCCNC(=N)N)NC2=O)NC(=O)[C@@H](Cc2ccc(O)cc2)NC(=O)[C@H](CC(=O)O)NC(=O)CNC1=O (stereo partly shown) [scandium-44 labelled]	–	ex vivo γ-counting	female athymic nude mice, U-87 MG xenograft, spleen	intravenous, 4 h	tissue uptake	0.83 ± 0.45 %ID/g
CSCC[C@@H]1NC(=O)[C@@H]2CCCN2C(=O)[C@H](C(C)C)NC(=O)[C@@H](NC(=S)Nc2ccc(CC3CN(CC(=O)O)CCN(CC(=O)O)CCN3CC(=O)O)cc2)CSSC[C@@H](C(=O)O)NC(=O)[C@H](C)NC(=O)[C@H](CCCNC(=N)N)NC(=O)[C@H](Cc2ccc(O)cc2)NC(=O)[C@H]([C@@H](C)O)NC1=O (stereo partly shown) [gallium-68 labelled]	–	–	serum	2 h	remaining compound	> 99%
CS(C)(=O)=Nc1ccc(-c2ccc(-c3nc4cc(O[C@@H]5CO[C@H]6[C@@H]5OC[C@H]6O)[nH]c4cc3F)cc2)cc1	Mitogen-activated protein kinase kinase kinase 5 (MAP3K5, Homo sapiens, UniProt Q99683)	enzyme activity, inhibitor	–	10 µM	inhibition	9%
CC[C@H](C)[C@H](NC(=O)[C@H](CO)NC(=O)[C@H](Cc1ccc(O)cc1)NC(=O)[C@H](Cc1ccc(O)cc1)NC(=O)[C@H](CC(N)=O)NC(=O)CNC(=O)[C@H](CO)NC(=O)[C@H](Cc1ccc(O)cc1)NC(=O)[C@H](CO)NC(=O)[C@H](CO)NC(=O)[C@H](CC(N)=O)NC(=O)COCCOCCNC(=O)CN1CCN(CC(=O)O)CCN(CC(=O)O)CCN(CC(=O)O)CC1)C(=O)N[C@@H](CC(C)C)C(N)=O [copper-64 labelled]	–	dynamic PET	KPC mouse Ptf1a-CreER tdTomato, pancreas	intravenous, 4.6 MBq/mouse, 22.5 min, 84 d after tamoxifen	tissue uptake	12.2 %ID/mL
CCCC[C@H](NC(=O)CN1CCC(NC(=S)Nc2ccc(C[C@H]3CN(CC(N)=O)CCN(CC(N)=O)CCN(CC(N)=O)CCN3CC(N)=O)cc2)CC1)C(=O)N[C@H]1CC(=O)NCCCC[C@@H](C(N)=O)NC(=O)[C@H](Cc2c[nH]c3ccccc23)NC(=O)[C@H](CCCNC(=N)N)NC(=O)[C@@H](Cc2ccccc2)NC(=O)[C@H](Cc2c[nH]cn2)NC1=O [lead-203 labelled]	–	–	male C57BL/6J mice B16-F10 tumour, tumour	intravenous, 20 pmol, 2 h	tissue uptake	1.68 ± 0.26 %ID/g
CC(C)(C)C(=O)OCOP(=O)(OCOC(=O)C(C)(C)C)C1CCCN(O)C1=O (stereo not shown)	MOLT-4	–	–	–	log LC50	> -4 log M
CCCC[C@H](NC(=O)CN1CCC(NC(=O)CN2CCN(CC(N)=O)CCN(CC(N)=O)CCN(CC(N)=O)CC2)CC1)C(=O)N[C@H]1CC(=O)NCCCC[C@@H](C(N)=O)NC(=O)[C@H](Cc2c[nH]c3ccccc23)NC(=O)[C@H](CCCNC(=N)N)NC(=O)[C@@H](Cc2ccccc2)NC(=O)[C@H](Cc2c[nH]cn2)NC1=O [lead-212 labelled]	–	–	male C57BL/6J mice, B16-F10 tumour, kidneys	intravenous, 20 pmol, 2 h, ex vivo	tissue uptake	7.11 ± 1.96 %IA/g
CC(C)C[C@H](NC(=O)[C@@H]1CCCN1C(=O)[C@H](CCCCN)NC(=O)[C@@H](N)CO)C(=O)N1CCC[C@H]1C(=O)N[C@@H](CCC(=O)O)C(=O)N[C@H](C(=O)N[C@H](C(=O)N[C@@H](CC(=O)O)C(=O)N[C@@H](CCC(=O)O)C(=O)N[C@@H](Cc1ccc(O)cc1)C(=O)NCC(=O)NCCOCCOCCOCCOCCOCCOCCOCCOCCOCCOCCOCCOCCC(=O)N[C@@H](CCCCNC(=O)CC[C@H](C(=O)O)N1CCN(CC(=O)O)CCN(CC(=O)O)CC1)C(=O)N1CCN(CCCN(C)c2ccc3nccc(C(=O)NCC(=O)N4CC(F)(F)C[C@H]4C#N)c3c2)CC1)[C@@H](C)O)C(C)C [copper-64 labelled]	–	PET	NMRI nude mouse, HT-1080 xenograft, hFAP-negative tumour	intravenous	SUVmean	1.06 ± 0.44 SUV
Cc1ncsc1-c1ccc(CNC(=O)[C@@H]2C[C@@H](OC(=O)OCCSSCCn3cc(CCCC(=O)N[C@@H](Cc4ccc(O)cc4)C(=O)N[C@@H](CCCNC(=N)N)C(=O)N[C@@H](CCCNC(=N)N)C(=O)N[C@@H](CCCNC(=N)N)C(=O)N[C@@H](CCCNC(=N)N)C(=O)N[C@@H](CCCNC(=N)N)C(=O)N[C@@H](CCCNC(=N)N)C(=O)N[C@@H](CCCNC(=N)N)C(=O)N[C@@H](CCCNC(=N)N)C(=O)N[C@@H](CCCNC(=N)N)C(N)=O)nn3)CN2C(=O)[C@@H](NC(=O)COCCOCCOCCNC(=O)C[C@@H]2N=C(c3ccc(Cl)cc3)c3c(sc(C)c3C)-n3c(C)nnc32)C(C)(C)C)cc1	–	UHPLC-UV	RPMI medium with 10% FBS	0 h, 37 °C	remaining compound	100%
CC[C@H](C)[C@@H]([C@@H](CC(=O)N1CCC[C@H]1[C@H](OC)[C@@H](C)C(=O)N[C@H](C)[C@@H](O)c1ccccc1)OC)N(C)C(=O)[C@@H](NC(=O)[C@H](C(C)C)N(C)C(=O)OCc1ccc(NC(=O)[C@H](CCCNC(N)=O)NC(=O)[C@@H](NC(=O)CCCCCN2C(=O)CC(SC[C@H](NC(=O)[C@H](CC(=O)O)NC(=O)[C@H](Cc3ccc(O)cc3)NC(=O)[C@H](Cc3c[nH]c4ccccc34)NC(=O)[C@@H](N)CCCNC(=N)N)C(=O)O)C2=O)C(C)C)cc1)C(C)C (stereo partly shown)	–	–	C57BL/6 mouse, healthy, spleen	intraperitoneal, 2.5 mg/kg, 0.167 h	concentration	not detected

Some of these lines once more:
Structure (SMILES)	tested on	test	system	conditions	measurement	result
CCCC[C@H](NC(=O)CN1CCC(NC(=O)CN2CCN(CC(N)=O)CCN(CC(N)=O)CCN(CC(N)=O)CC2)CC1)C(=O)N[C@H]1CC(=O)NCCCC[C@@H](C(N)=O)NC(=O)[C@H](Cc2c[nH]c3ccccc23)NC(=O)[C@H](CCCNC(=N)N)NC(=O)[C@@H](Cc2ccccc2)NC(=O)[C@H](Cc2c[nH]cn2)NC1=O [lead-212 labelled]	–	–	male C57BL/6J mice, B16-F10 tumour, kidneys	intravenous, 20 pmol, 2 h, ex vivo	tissue uptake	7.11 ± 1.96 %IA/g
CC(C)C[C@H](NC(=O)[C@@H]1CCCN1C(=O)[C@H](CCCCN)NC(=O)[C@@H](N)CO)C(=O)N1CCC[C@H]1C(=O)N[C@@H](CCC(=O)O)C(=O)N[C@H](C(=O)N[C@H](C(=O)N[C@@H](CC(=O)O)C(=O)N[C@@H](CCC(=O)O)C(=O)N[C@@H](Cc1ccc(O)cc1)C(=O)NCC(=O)NCCOCCOCCOCCOCCOCCOCCOCCOCCOCCOCCOCCOCCC(=O)N[C@@H](CCCCNC(=O)CC[C@H](C(=O)O)N1CCN(CC(=O)O)CCN(CC(=O)O)CC1)C(=O)N1CCN(CCCN(C)c2ccc3nccc(C(=O)NCC(=O)N4CC(F)(F)C[C@H]4C#N)c3c2)CC1)[C@@H](C)O)C(C)C [copper-64 labelled]	–	PET	NMRI nude mouse, HT-1080 xenograft, hFAP-negative tumour	intravenous	SUVmean	1.06 ± 0.44 SUV
